Measured values gathered from unrelated publications.
Every numbered part comes from another study and shows a few of its results, in no order. Changes are numbered by the printed parent chain.

Study 1 — target: JDP2, bZIP domain (human); technique: DHFR protein complementation; sample: yeast; relative to: wild-type JUN-FOS pair; reading: higher = stronger binding
Notes: single substitutions, most at no-binding floor
Parent: JUN, bZIP domain (human); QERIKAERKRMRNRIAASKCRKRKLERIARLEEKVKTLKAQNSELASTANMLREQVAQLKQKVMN; partner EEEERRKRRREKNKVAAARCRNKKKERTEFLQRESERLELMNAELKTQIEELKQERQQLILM
`A40Y` gave a binding fitness of 0.194 natural log.
For `T37Q`, the binding fitness was 0.388 natural log.
`T48L` gave a binding fitness of 0.224 natural log.
`Q41T` gave a binding fitness of 0.235 natural log.
`E44G` has a binding fitness of 0.239 natural log.
For `S47G`, the binding fitness was 0.315 natural log.
The binding fitness of `A49P` is reported as -0.943 natural log.
For `A40L`, the binding fitness was 0.215 natural log.
The binding fitness of `E44F` is reported as 0.253 natural log.
The binding fitness of `A49V` is reported as 0.251 natural log.
The binding fitness of `T48G` is reported as 0.0213 natural log.
`L38V` gave a binding fitness of 0.0473 natural log.
`S43W` has a binding fitness of 0.235 natural log.
For `T48Y`, the binding fitness was 0.212 natural log.
For `T48F`, the binding fitness was 0.163 natural log.
The binding fitness of `S43A` is reported as 0.315 natural log.
`A57Q` has a binding fitness of 0.28 natural log.
`M51R` gave a binding fitness of 0.306 natural log.
For `E54K`, the binding fitness was 0.183 natural log.
`E32N` gave a binding fitness of 0.182 natural log.

Study 2 — technique: RNA Bind-n-Seq; molecule type: RNA; sample: in vitro; tested at: 365 nM; relative to: no-protein control; reading: higher = stronger binding
Target: RNA binding protein fox-1 homolog 2, RRM domain, GST-SBP tag (RBFOX2, Homo sapiens, UniProt O43251-10, residues 100-194)
Notes: natural RNA segment, single round, ends assumed
Shared flanks, not repeated: GGGAGUUCUACAGUCCGACGAUC … UGGAAUUCUCGGGUGCCAA
Target sequence (chain): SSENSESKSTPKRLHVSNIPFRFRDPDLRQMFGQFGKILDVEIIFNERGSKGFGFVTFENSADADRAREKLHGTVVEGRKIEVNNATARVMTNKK
`UAUUUUUGGAAUAUUUGUAUUACUUACAAUUAAUUAAUAAAAGUGGGUUUAAAAAACCUUUCCAGGAUGUGAGCUGCCACCAACCUUCAUUGGCCCUUAAGUGUUCACUG` — result for “RBNS enrichment (R)”: 0.365.
`UCCAAGAAAGGGUCAUUUCAGACGCAGCCCUGCUUGGGCUAUUCAAUCUUAGGGUGUCUAUCCACGUCUGGCUGUGCCAAAUGGUCUGGCAGCUGGUUUUGGCAUCCCCA`: “RBNS enrichment (R)” 0.376.
`UUUUUUGUUUUUGUUUUUUCCAUUGUUCUGCACUUCCACAGUCCAGACCAAUCAAGUCACUUGACAAUAUGCCCCAAGUGACUCCCUUACCCUGUUUUAUAAACCUGUGC`: “RBNS enrichment (R)” 0.724.
Under “RBNS enrichment (R)”, `CCCAACACCUGCACUGGGCCAUCUAUGGGAAAGAACACGGGUCGAGUGCAGUCGAGUUGUCUGGCCAUCUGUAUUUGGAUCUAUAACUGUACUUUGCCUGGCGCUGUGCG` is recorded as 1.09.
For `UUGAACAUCAAGAUCAAAUUAGUGGAUGCUGUCGUCUCUUAAAGCUGGUUUUAUUUGUCUCUGGUCCACAAGAGUGUUUUGGCAACUGCCUGGAGCUUGCAUGUUGGGAC`, “RBNS enrichment (R)” read 7.37.
For `CACAACAACGGAAGGAACAGAAGAAAAAACACAAGCGCAAGUGAGCAGAAUUGUCUGGAAAGACUGAAGGACAGAGAGGGAGGUGUACAGUUCUCUCUGGAGGCUUUGUG`, “RBNS enrichment (R)” read 1.12.
For `GCUGGAAUUGAGUGUGUGCCACCUUGACCAGCCUUUUGUUUCCUUUUUAAUACUAAACCUUACAGUCAGGAUUUGGAGUUCUUACAUCAUAUAUAAUAUGUAAUAAACCA`, “RBNS enrichment (R)” read 0.272.
For `CACUGGGUGGUUCCCACUGCAUGACCCUCUAUCCCUGCCAUCUGUCCCCAUGGUUUCCAGCUCAAUCCACCCCUGACCCAUCUGUCAGCUUUUUCCCAGGGAGCCGUUUC`, “RBNS enrichment (R)” read 1.55.
Under “RBNS enrichment (R)”, `AAAAUUAACUCUGAAGGUCAGUCUACCUGACAUUACCUAGGCAUGGUGUUGUCCAAGCUGCGCAUCGGUGCACAGUGUGGCCUGGCACACACGCAGGCGGGCGACGGAAC` is recorded as 1.19.
For `CCAAGUGGUAUGUCGGCCAUUUCUCCUUAAAACACCUUCCCUACCUUUCCCAUGUACUCAGUUUAGCUCUCAAAGAAGGGGUGAAUCAUAAAGCCAGUGAAAAUUUCACC`, “RBNS enrichment (R)” read 0.678.
`AAAGAGCGGCCCACAGUCAUGCUACUCCCAUUUAGGAACAUGGGCUUACCAGCUCAAGACUUAUCUAACCCUAAAAGCAGGGAAGAACCCGGUGCGGCCUCAGCAGCUUC`: “RBNS enrichment (R)” 0.253.
`CAGCCAGGAGCUCCCUGGCACCGCAGGACCUCGUGGUACUCUUGCCUUAGAUUUUACACACACUCCACAGCCAAGCACUGCCACGGUCCUCCAGGACCUGGGAAGCAAAG`: “RBNS enrichment (R)” 0.222.

Study 3 — technique: RNA Bind-n-Seq; molecule type: RNA; sample: in vitro; tested at: not given; notes: RNA with constant flanks, ends assumed; relative to: input RNA pool; reading: higher = stronger binding
Target: RING finger protein unkempt homolog, zinc fingers 1-6, GST-SBP tag (UNK, Homo sapiens, UniProt Q9C0B0, residues 30-357)
Chain of UniProt Q9C0B0 (30-357, looked up): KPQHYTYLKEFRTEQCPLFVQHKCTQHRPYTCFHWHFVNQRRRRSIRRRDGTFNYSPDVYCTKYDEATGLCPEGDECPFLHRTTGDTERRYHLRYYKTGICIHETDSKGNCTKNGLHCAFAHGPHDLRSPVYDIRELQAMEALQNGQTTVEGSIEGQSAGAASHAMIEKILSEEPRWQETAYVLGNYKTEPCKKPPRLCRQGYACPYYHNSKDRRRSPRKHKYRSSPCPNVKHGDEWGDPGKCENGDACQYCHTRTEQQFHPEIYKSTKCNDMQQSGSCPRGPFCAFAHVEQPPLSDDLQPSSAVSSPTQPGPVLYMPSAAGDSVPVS
Shared flanks, not repeated: GGGAGUUCUACAGUCCGACGAUC … CAACAGAGGAUUGAGCAUCA
For `UGUCUUGAUGACACUACAGUAAAGUUUGAAAUAUGGGAUACAGCUGGUCAAGAACGAUACCACCGCCCCGCACCAAUGUACUACAGAGGAGCACAAGCAGCCAUAGUUGUAUAUGAUAUC`, the bound/input enrichment was 0.544 ratio.
`GAGCAUAAAGCUGAGAAAGUCCCAGCCGUAGCUAACUACAUUAUGAAAAUACACAAUUUUACCCGCAAAUGCCUCUACUGUAAUCGCUAUUUGCCUACAGAUACCCUACUCAACCAUAUG` gave a bound/input enrichment of 1.36 ratio.
`AGUUAGAAAUUAAGUCUACUGAAAAAUUUACAUUUUGAGUCAGGUUUUGUGUCAGUACUUCCGCAGUUUUUGAGAAUGUGUUUGAUAUCACAGUGUUUGUAAAUUCUAUGAAAAAUGCAU` gave a bound/input enrichment of 0.476 ratio.
`UCAGGAACUCAGACAAAUAUGAAUGUAAAUGAAGUCAUUAGCAAUAGAGCAAUUGAAAUGUCCGGAGGUGAACUUGGCAGCAAGAUACCUGUGCAUCCCAACGAUCAUGUUAAUAAAAGC` has a bound/input enrichment of 0.56 ratio.
With `GUUGAUGCAGACUCUCUUGCCGAGGUAGAUGAUGGAAUGGCUUCCCGUCAGGGUUCUCCCAGCCGAACCUUUGGUCUGAGUCUGUCUACGGAUUCUUCGGCAGUAGGGGCUGUUGCUUCU` the bound/input enrichment was 0.363 ratio.
For `CCUGCCUCACCAGUUGGUACACUGUUUUCUGAAAGAGGUGGGAUCCAAAAGAGCUGUUUCCCGCUGCACUCCAAGCAUCUGAGACUUUGGGCACAAGGACACUUUUCUUUUCUUUUUUUU`, the bound/input enrichment was 0.321 ratio.
For `GAAGUUUGUAUCAACCCAUACCACUAUAAGAGAGUGGAGAGUCCAGUCUUACCUCCAGUAUCCGUGCCUCGUCAUAAUGAAUUCAAUCCACAACACAGCCUUCUGGUUCAGUUUAGGAAC`, the bound/input enrichment was 1.88 ratio.
`GCCAUUGAUAGGAAGCGGCACCAUGUACUACAGACGGCUCAUCCCUCCCCUUUGUCAGUGUACCGAGGGUUCUUUGGAUGUAGACACUUUUCAAAGACCAAUGAGCUGCUGCAGAAGUCU` gave a bound/input enrichment of 0.166 ratio.
The bound/input enrichment of `CCAGAUACAAUAGAAAGUGAACCCAGCACAGCAGAUACCGUUGUUCCAAUCACUUGUGCUACCGAUUCUACAGCUGAUCCACAGGUUAGCUUCAACUCUAAUUACAUUGAUAUAGAAAGU` is reported as 0.749 ratio.
`GGAAAUUCAGGUAACUUGAAAAGCUCAGACAGAAAUCCUCCACUCAGUCCUCAGUCCUCUACCGACCGUGAGUUAAGUGCUUCAGAAUUAGAUGAAGAUUCAAUUGGAUCCAAUUAUAAG` has a bound/input enrichment of 0.862 ratio.
`UUCUUAAUUUUUCUUUCUUACAAAAACUGAUUUUUCCCAUAAAUAUUUUUACUUCAGAGGACCCGGACCAUUUUGUUUUGGGCCCUUCUGCUGAAAAUUUGUCUCGUUUAAGAGGCAGCU` gave a bound/input enrichment of 2.31 ratio.

Study 4 — technique: protein-binding microarray; molecule type: double-stranded DNA, one strand shown; sample: in vitro; tested at: 250 nM; notes: 60-bp whole probe; added: salmon DNA 0.4 mg/ml; relative to: random background probes; reading: higher = stronger binding; shared flanks, not repeated: GCCTAGCAC … GTCTTGATTCGCTTGACGCTGCTG
Target: Interferon regulatory factor 7, full length, phosphomimetic (IRF7, Homo sapiens, UniProt Q92985, residues 1-503, S101K/S471D/S472D/S475D/S476D/S477D/S483D/S484D/S487D)
Chain of UniProt Q92985 (whole entry, unmodified, looked up): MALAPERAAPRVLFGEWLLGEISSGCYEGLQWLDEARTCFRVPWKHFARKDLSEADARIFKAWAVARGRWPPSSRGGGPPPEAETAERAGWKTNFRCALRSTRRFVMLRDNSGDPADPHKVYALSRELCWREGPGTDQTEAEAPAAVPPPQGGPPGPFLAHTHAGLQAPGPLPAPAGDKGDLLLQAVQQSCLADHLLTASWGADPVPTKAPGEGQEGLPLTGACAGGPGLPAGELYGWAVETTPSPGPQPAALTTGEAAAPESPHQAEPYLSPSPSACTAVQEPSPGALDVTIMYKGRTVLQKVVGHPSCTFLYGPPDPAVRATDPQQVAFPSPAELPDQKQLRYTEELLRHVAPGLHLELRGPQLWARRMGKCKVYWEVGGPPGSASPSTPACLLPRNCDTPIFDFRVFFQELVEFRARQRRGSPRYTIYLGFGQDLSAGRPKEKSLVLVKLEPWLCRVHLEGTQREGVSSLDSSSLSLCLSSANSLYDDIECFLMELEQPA
With `GACGGACTGGGGTTTCGGGTCGTGCTA` the log fluorescence was 3.9 z-score.
`GACGGTTTCGGACGGGGGACGTGCTAG` gave a log fluorescence of 3.14 z-score.
With `TTAGGTTTCCCTTTCCTTTAGTGCTAG` the log fluorescence was 5.93 z-score.
For `TTTGCTTTAGTCATTCACTGAGTGCTA`, the log fluorescence was -0.157 z-score.
`GACGGACTGGGGACTGGGGTCGTGCTA` has a log fluorescence of -0.583 z-score.
For `TGAGGTTCCCTTTTCCTTTAGTGCTAG`, the log fluorescence was 3.01 z-score.
With `TCATCTATGTAGTTGATACTGTGCTAG` the log fluorescence was 0.164 z-score.
With `GCCTTGTTCGTCGCTCCGCTGTGCTAG` the log fluorescence was 0.819 z-score.
With `GAGGGTATCGGTTTCGGGACGTGCTAG` the log fluorescence was 5.85 z-score.
`GACGGAATCGGGACTGGGGACGTGCTA` gave a log fluorescence of -0.00636 z-score.
`TCATCTCTTATTCTAACACTGTGCTAG` has a log fluorescence of 0.978 z-score.
`TTAGGTATCCTTTTGCTTTAGTGCTAG` has a log fluorescence of 1.19 z-score.
The log fluorescence of `ATAGGTATCCTTATCCTTTAGTGCTAG` is reported as 0.519 z-score.
`GAGGGTTTCGACTTTCGGGACGTGCTA` gave a log fluorescence of 9.13 z-score.
`TATATATCCATTATAGATGAGTGCTAG` gave a log fluorescence of 0.978 z-score.
With `TCATCTTTCACTGGTCCTACTGTGCTA` the log fluorescence was 0.706 z-score.
With `GTCGATTTCGGGTATCGAGACGTGCTA` the log fluorescence was 1.66 z-score.
For `TTAGGTATCCTTACCCTTTAGTGCTAG`, the log fluorescence was -0.0539 z-score.
`CTAGGTTTCCTTTTCCTTTAGTGCTAG` has a log fluorescence of 7.16 z-score.

Repeated from above (study 4):
`GACGGACTGGGGACTGGGGTCGTGCTA` has a log fluorescence of -0.583 z-score.
With `TCATCTTTCACTGGTCCTACTGTGCTA` the log fluorescence was 0.706 z-score.
With `GTCGATTTCGGGTATCGAGACGTGCTA` the log fluorescence was 1.66 z-score.
